Measurements of several laboratories.
Parts stem from different laboratories: compare values within a part only.

Set 1
Target: Prothrombin, mature alpha-thrombin (F2, Homo sapiens, UniProt P00734)
Technique: aptamer microarray, sandwich
Molecule type: DNA with 2'F-ANA
Sample: in vitro
Concentration: 200 nM
Setting: whole 15-mer aptamer, many near background
With: Cy3 exosite-II aptamer, 400 nM
Direction: higher = stronger binding
Endpoint: mean fluorescence intensity
Oligonucleotide: GGTTGGTGTGGTTGG
2'F-ANA at 4 5 6 10 11: 45.1 a.u.
2'F-ANA at 2 4 6 10 11 12: 101 a.u.
2'F-ANA at 1 3 4 5 8 9 10 12 14: 44.7 a.u.
2'F-ANA at 6 7 8 9 12 13 14: 199 a.u.
2'F-ANA at 1 2 4 5 6 7 8 9 11 13 14: 47.2 a.u.
2'F-ANA at 1 2 3 6 7 8 10 13 14: 55.6 a.u.
2'F-ANA at 2 6 9 10 13 14: 174 a.u.
2'F-ANA at 1 2 3 6 8 10 11: 62.9 a.u.
2'F-ANA at 1 9 11 13 15: 131 a.u.
2'F-ANA at 1 5 6 7 8 9 11 14: 50.1 a.u.
2'F-ANA at 1 2 3 5 6 7 8 10 12: 50.3 a.u.
2'F-ANA at 1 3 6 7 9 11 12 13 14 15: 92.9 a.u.
2'F-ANA at 3 4 7 8 9 13 14: 296 a.u.
2'F-ANA at 2 3 5 6 7 11 12 13 14 15: 53.7 a.u.
2'F-ANA at 6 8 10 13: 143 a.u.
2'F-ANA at 2 3 4 5 8 9 11 12 13: 108 a.u.
2'F-ANA at 1 4 8 9 11 14: 49.7 a.u.
2'F-ANA at 1 2 4 5 9 14 15: 49.6 a.u.
2'F-ANA at 1 2 3 4 6 7 10 11 12 14: 52.3 a.u.
2'F-ANA at 1 3 6 7 8 10 13 14 15: 57.4 a.u.
2'F-ANA at 5 6 8 9 11 12: 228 a.u.
2'F-ANA at 2 3 6 7 8 11 12 13 14: 431 a.u.
2'F-ANA at 1 5 6 10 11 13 14: 48.5 a.u.
2'F-ANA at 3 4 6 7 8 9 11 12 13: 649 a.u.
2'F-ANA at 1 4 5 7 9 10 11 13 15: 50.4 a.u.

Set 2
Target: RNA binding protein fox-1 homolog 2, RRM domain, GST-SBP tag (RBFOX2, Homo sapiens, UniProt O43251-10, residues 100-194)
Technique: RNA Bind-n-Seq
Molecule type: RNA
Sample: in vitro
Concentration: 365 nM
Setting: natural RNA segment, single round, ends assumed
Reference: no-protein control
Direction: higher = stronger binding
Endpoint: RBNS enrichment (R)
Shared flanks, not repeated: GGGAGUUCUACAGUCCGACGAUC … UGGAAUUCUCGGGUGCCAA
Construct (chain): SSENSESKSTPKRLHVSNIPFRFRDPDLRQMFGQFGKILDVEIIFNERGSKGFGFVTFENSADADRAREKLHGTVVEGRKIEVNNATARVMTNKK
GGGGAGAUGUGAGCCUUCUCUGGAGGGAAGUUUCAUGAUUGCAUCUAUAAUGAAUAUAUUGCCUGUUUUGUGAAUACUGACACAUGUCCAUACCUAAAACACUCCUGAGU: 1.02
AGAUGUUGCAGGACCUUGUUUUAAAAUCAACUCCCUUCUCUCCCAGCGGGGGGCCUCUUCCUUCCUGGUGCUGGUCAGGGGGCCUGGAAACAAACUUUCUGAGGCUGGGU: 0.342
UUAGAACGAGGCACAGAUCGCACAUUUUCUACUUGAGGAUCUUUUUUAGUGGUGAAUACCAAGAUUCAGUGCAUCCUUUAAAAGAGCGUUCUUGUCCCUGGCGCUGGCUA: 0.332
CCCACAGCAGCCACGCUAGAAGCUUAAUGGAUUCGGAGCCCAUGAGAGAAAGAACACAGGCUUCCUGGUCUGCCCUCCCCCUCCGCUCACCAGGAGCUAAACUGAGAGGC: 1.69
UGUAAAUACUUUUUUCCAUUUCACACCGUUGUAUUAUAAGUGUAUAUGGCGACUCCUUUUCCAGAAACUUUUCUUACCUGUUGGUUGUCUUGUUUCCUGGGUUGUUUUUA: 0.461
GUCCUUGUCUUUCCCAAUCUUUGUCCCUCCAUCCCCAGUGGCAUCAGGAGAGGAGUAGGUAAUGUUGGCCUUCAGUGGUAGCAGUCUUCUGGGGCAGGGGUCAGCCACUG: 0.61
GUUUGUAGUCAUGUUGUCAACAGAGGCAAAGUUAAGCUUGAUGAUGGUUAAAAUCGGUUUGAUAGCACCAUGGGACAUUUUUCUAACAAAAAUAAAUGCAUGAAGAGACA: 11.4
GAGUGCGCGCCGUCGGGGAGGCGGGAACGCGGGCCCGCGCGCGGACUUUGCACUUUGAAUCCAGAGGAAGAUGAAUUUUUAAAAUCUCCAUCAAACGUGCCUUAAAGCUA: 0.366

Set 3
Target: Interferon regulatory factor 7, full length, phosphomimetic (IRF7, Homo sapiens, UniProt Q92985, residues 1-503, S471D/S472D/S475D/S476D/S477D/S483D/S484D/S487D)
Technique: protein-binding microarray
Molecule type: double-stranded DNA, one strand shown
Sample: in vitro
Concentration: 2200 nM top
Setting: 60-bp whole probe
With: salmon DNA 0.4 mg/ml
Reference: random background probes
Direction: higher = stronger binding
Endpoint: fitted relative affinity
Shared flanks, not repeated: GCCTAGCAC … GTCTTGATTCGCTTGACGCTGCTG
Residues (chain): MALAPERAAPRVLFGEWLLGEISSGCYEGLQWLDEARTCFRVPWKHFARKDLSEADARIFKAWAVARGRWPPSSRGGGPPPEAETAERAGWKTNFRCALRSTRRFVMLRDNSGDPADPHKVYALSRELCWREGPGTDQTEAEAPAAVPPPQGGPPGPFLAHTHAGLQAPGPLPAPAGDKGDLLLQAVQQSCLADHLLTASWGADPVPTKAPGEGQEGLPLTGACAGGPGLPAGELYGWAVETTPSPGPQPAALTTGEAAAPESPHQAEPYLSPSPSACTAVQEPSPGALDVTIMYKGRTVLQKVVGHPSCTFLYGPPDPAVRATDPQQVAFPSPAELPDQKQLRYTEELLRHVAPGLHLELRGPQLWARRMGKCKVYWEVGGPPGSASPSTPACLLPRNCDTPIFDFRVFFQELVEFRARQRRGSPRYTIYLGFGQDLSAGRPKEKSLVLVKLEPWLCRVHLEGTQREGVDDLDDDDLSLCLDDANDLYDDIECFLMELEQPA
GACGGACTGGGGTATGGGGACGTGCTA: -0.556 z-score
TTAGATATCACACTGGATTAGTGCTAG: 0.161 z-score
TCACCTTGAACTTTGGCACTGTGCTAG: 0.833 z-score
TTAGGTTTCGATCTCGGTTAGTGCTAG: 6 z-score
TTAGGTTTCGACTTTGGGTTAGTGCTA: 5.52 z-score
TTAGGTTTCCGTATCGGTTAGTGCTAG: 2.67 z-score
TTAGGAGTGCTACTGCTTTAGTGCTAG: -0.453 z-score
TCATCTCCGGGGTCTGTGACTGTGCTA: 0.445 z-score
CTTCCACTTAGGGTGGCTGGGTGCTAG: 0.68 z-score
GACGAACTGTGGTATCGAGACGTGCTA: -0.118 z-score
TTAGGTATCGACACTGGCTTAGTGCTA: -0.217 z-score
GTCGGTATCCTTCTCCTGACGTGCTAG: 1.83 z-score
TTAGGTATCGACTAACGGTTAGTGCTA: -0.327 z-score
TAAGGTATCGGGTATCGGTTAGTGCTA: 0.225 z-score
TGCTCTCCGGGGTCTGTGAGGGTGCTA: -0.184 z-score
TCAGCTATTTTATATGCTACTGTGCTA: 0.32 z-score
TTAGATATCAGTTTCGCTTAGTGCTAG: 5.43 z-score
GACGAACTGAGTATCGATACGTGCTAG: 0.274 z-score
GACGGTATCGACTATCGGAACGTGCTA: 0.0431 z-score

Set 4
Target: Sal-like protein 4, full length isoform A (SALL4, Homo sapiens, UniProt Q9UJQ4, residues 1-1053)
Sequence of UniProt Q9UJQ4 (whole entry, looked up): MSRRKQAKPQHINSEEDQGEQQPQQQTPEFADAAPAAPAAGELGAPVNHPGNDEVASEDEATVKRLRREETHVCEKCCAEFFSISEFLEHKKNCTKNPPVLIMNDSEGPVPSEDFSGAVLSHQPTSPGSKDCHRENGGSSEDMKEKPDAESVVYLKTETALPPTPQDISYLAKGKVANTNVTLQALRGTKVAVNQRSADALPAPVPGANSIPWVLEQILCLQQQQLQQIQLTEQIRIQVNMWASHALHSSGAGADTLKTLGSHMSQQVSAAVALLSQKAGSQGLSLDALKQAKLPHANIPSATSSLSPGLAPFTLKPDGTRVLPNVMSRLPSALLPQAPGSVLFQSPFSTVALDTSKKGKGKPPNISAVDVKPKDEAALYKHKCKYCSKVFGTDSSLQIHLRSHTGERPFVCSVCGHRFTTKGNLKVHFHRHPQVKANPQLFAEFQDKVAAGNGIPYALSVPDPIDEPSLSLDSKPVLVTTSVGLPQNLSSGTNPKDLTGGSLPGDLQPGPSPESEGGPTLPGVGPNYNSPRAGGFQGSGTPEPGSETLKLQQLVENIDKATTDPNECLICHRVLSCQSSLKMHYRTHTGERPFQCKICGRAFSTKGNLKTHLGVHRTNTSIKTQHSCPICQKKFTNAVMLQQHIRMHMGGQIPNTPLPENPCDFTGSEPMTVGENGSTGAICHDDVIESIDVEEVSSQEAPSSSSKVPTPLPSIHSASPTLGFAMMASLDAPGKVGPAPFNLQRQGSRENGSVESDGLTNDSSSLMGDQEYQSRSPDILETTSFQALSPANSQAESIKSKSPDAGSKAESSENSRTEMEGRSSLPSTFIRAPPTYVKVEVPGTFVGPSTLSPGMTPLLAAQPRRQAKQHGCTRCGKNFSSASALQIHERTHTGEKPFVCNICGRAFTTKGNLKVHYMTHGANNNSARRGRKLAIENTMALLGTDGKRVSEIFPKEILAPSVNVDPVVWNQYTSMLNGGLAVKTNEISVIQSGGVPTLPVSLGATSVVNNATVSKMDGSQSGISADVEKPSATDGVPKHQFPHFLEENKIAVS
Technique: universal PBM
Molecule type: double-stranded DNA, one strand shown
Sample: in vitro
Concentration: 600 nM
Setting: 8-mer, flanks averaged, mean of replicates
Direction: higher = stronger binding
Endpoint: E-score
AAGTTCTC: -0.0669
CATTAGAA: 0.218
AATCCGCA: -0.0785
CTGTGCGC: -0.316
TACATCGA: 0.0759
CTCCTTAC: 0.0254
TAGACGCA: 0.104
GACAGTGC: -0.12
GTTCACGA: -0.0943
GAAACCCA: 0.0105
GAATAATC: 0.235
ACTATTTG: 0.258
AAGAGATC: -0.09
AATAATAC: 0.364
AGCACCAA: 0.0479
ACGGTTCC: -0.228
GTAGTTGA: 0.151

Some of these lines once more (set 4):
GTAGTTGA: 0.151
AAGTTCTC: -0.0669
ACTATTTG: 0.258
GACAGTGC: -0.12
ACGGTTCC: -0.228
AGCACCAA: 0.0479
TACATCGA: 0.0759
CATTAGAA: 0.218
GAAACCCA: 0.0105
